Published values pooled from the literature.
Each numbered part is a random draw from the data of one study; scales do not carry over between parts.

Study 1 — technique: RNA Bind-n-Seq; molecule type: RNA; medium: in vitro; tested at: 200 nM; setting: whole 134-nt RNA, ends assumed; with: 150 mM LiCl; reference: input library; direction: higher = stronger binding; library: 7-deaza-guanosine replaces G
Target: Ras GTPase-activating protein-binding protein 1, full length (G3BP1, Homo sapiens, UniProt Q13283)
UniProt Q13283, sequence (whole entry, looked up): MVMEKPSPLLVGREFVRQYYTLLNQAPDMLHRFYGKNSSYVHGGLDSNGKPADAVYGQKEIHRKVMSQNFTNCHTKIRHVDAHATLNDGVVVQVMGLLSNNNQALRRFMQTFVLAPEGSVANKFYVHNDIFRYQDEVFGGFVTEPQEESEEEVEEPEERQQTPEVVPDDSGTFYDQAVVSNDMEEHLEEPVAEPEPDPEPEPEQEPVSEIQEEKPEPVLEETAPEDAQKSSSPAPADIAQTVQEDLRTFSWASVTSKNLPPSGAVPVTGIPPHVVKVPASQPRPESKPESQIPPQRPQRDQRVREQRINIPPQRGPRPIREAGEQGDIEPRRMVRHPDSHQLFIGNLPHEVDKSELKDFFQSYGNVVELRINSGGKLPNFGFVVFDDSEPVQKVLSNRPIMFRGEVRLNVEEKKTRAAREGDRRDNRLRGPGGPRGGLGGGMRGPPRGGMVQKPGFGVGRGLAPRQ
The log2 enrichment of `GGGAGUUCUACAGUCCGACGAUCGCAGGAAGUAAAAACAAAUGGAAAUGCUUCGGAUAGUGGCAGGGGUGGGGGUUGCGAAGGAAAGGGUGGGAUGGGAGUGGGUAAAGAGUUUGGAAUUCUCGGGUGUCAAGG` is reported as -0.32.
With `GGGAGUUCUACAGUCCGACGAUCCUCAAGUCCUGUGCUACACAUCGUAUGUACCGAAUCGGAAAAAGGAAAGGUGGAAAGUAUUAUGUUACGCCGUUCGGAUCUGCACUUCCAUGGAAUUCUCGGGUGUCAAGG` the log2 enrichment was -0.494.
`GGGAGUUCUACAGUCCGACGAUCGCAGGAAGUAAAAACAAAUGGAAAUGCUUCGGAUAGUGGCAGGGGUGGGGGUUGCUAAGGAAAGGGUGGGAUGGGAAAAGGUAAAGAGUUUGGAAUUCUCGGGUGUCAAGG` gave a log2 enrichment of -0.0891.
`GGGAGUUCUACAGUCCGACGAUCCAAGUCCUGUGCUACACAUCGUAUGUACCGAAUCGGGUUUUGGGUUUUGGUUUUGGAAAGUAUUAUGUUACGCCGUUCGGAUCUGCACUUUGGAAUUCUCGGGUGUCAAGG` gave a log2 enrichment of -1.03.
The log2 enrichment of `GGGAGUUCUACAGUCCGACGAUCCACAGACAACACGCACCCACACAGACACAGAGGAAAGGGGUUGGGAUGGGGACAGGGUGCACAGCAGGGCGGGGUAGGACCCCAGCCCCUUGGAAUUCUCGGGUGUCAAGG` is reported as 0.492.
The log2 enrichment of `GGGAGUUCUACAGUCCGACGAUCUAACUUUAGAGGAGGAUCUGAUGGAUAUGGCAGUGGACGUGGAUUUGGGGAUGGCUAUAGUGGGUAUGGAGGAGGACCUGGAGGUGGCAAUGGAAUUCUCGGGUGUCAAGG` is reported as -0.0137.
`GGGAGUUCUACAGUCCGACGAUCUAACUUUAGAGGAGGAUCUGAUGGAUAUAGCAGUGGACGUGGAUUUGGGGAUGGCUAUAAUGGGUAUGGAGGAGGACCUGGAGGUGGCAAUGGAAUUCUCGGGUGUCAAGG` gave a log2 enrichment of 0.0999.
`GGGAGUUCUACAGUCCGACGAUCAGUCCUGUGCUACACAUCGUAUGUACCGAAUCGGGUUUGGGUUUUUGGGAAAAAGGGAAAGUAUUAUGUUACGCCGUUCGGAUCUGCACUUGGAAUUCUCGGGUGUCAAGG` gave a log2 enrichment of -0.548.

Study 2 — technique: aptamer microarray, sandwich; molecule type: DNA with 2'F-ANA; medium: in vitro; tested at: 200 nM; with: Cy3 exosite-II aptamer, 400 nM; direction: higher = stronger binding; strand: GGTTGGTGTGGTTGG
Target: Prothrombin, mature alpha-thrombin (F2, Homo sapiens, UniProt P00734)
Setting: whole 15-mer aptamer, many near background
`2'F-ANA at 2 4 5 8 10 13` — result for “mean fluorescence intensity”: 45 a.u.
`2'F-ANA at 3 4 5 13 15` — result for “mean fluorescence intensity”: 91.7 a.u.
For `2'F-ANA at 5 6 7 8 9 15`, “mean fluorescence intensity” read 78.5 a.u.
`2'F-ANA at 1 4 6 8 9 11 14`: “mean fluorescence intensity” 50 a.u.
`2'F-ANA at 1 2 4 7 8 9 11 12 14 15`: “mean fluorescence intensity” 60.5 a.u.
`2'F-ANA at 1 3 5 6 7 9 11 13`: “mean fluorescence intensity” 54.7 a.u.
Under “mean fluorescence intensity”, `2'F-ANA at 1 3 5 7 8 9 10 13 14` is recorded as 69.1 a.u.
For `2'F-ANA at 1 6 7 8 9 10 14 15`, “mean fluorescence intensity” read 50.5 a.u.
`2'F-ANA at 1 3 5 6 10 13` — result for “mean fluorescence intensity”: 131 a.u.
`2'F-ANA at 1 2 4 5 10` — result for “mean fluorescence intensity”: 42.8 a.u.
Under “mean fluorescence intensity”, `2'F-ANA at 1 2 3 8 11 14 15` is recorded as 68.6 a.u.
Under “mean fluorescence intensity”, `2'F-ANA at 2 3 8 9 12 13 14` is recorded as 461 a.u.
For `2'F-ANA at 1 2 3 9 15`, “mean fluorescence intensity” read 244 a.u.
`2'F-ANA at 1 2 3 5 6 7 10 11 12 14 15`: “mean fluorescence intensity” 51.1 a.u.
Under “mean fluorescence intensity”, `2'F-ANA at 2 5 6 8 9 10 11 15` is recorded as 57 a.u.
`2'F-ANA at 1 2 3 5 6 8 9 10 11 13` — result for “mean fluorescence intensity”: 88.6 a.u.
For `2'F-ANA at 4 5 6 9 10 11`, “mean fluorescence intensity” read 48.3 a.u.
`2'F-ANA at 2 4 10 11 12 13`: “mean fluorescence intensity” 97.8 a.u.

Study 3 — technique: RNA Bind-n-Seq; molecule type: RNA; medium: in vitro; tested at: 365 nM; reference: no-protein control; direction: higher = stronger binding
Target: RNA binding protein fox-1 homolog 2, RRM domain, GST-SBP tag (RBFOX2, Homo sapiens, UniProt O43251-10, residues 100-194)
Setting: natural RNA segment, single round, ends assumed
Target sequence (chain): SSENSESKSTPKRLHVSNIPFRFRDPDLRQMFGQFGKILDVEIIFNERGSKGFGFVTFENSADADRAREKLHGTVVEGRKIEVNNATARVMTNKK
Under “RBNS enrichment (R)”, `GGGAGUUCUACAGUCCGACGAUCCACGAAAUUCCAGAAGAAAUGUGUGAUAAAAUCUGAAGUCAUGCUAGGCUUUUUUCUCUCUGCAACAUUUGUUCCUGGAAGAAAAGAGCAGAUGGAUUAUUUGUCGACCAUGGAAUUCUCGGGUGCCAA` is recorded as 0.384.
`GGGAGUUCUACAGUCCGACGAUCUCUAUUGCUCAACAGUCCCUGUCAUCCUUAAGUGACUUCUGGGUUUCCCACAAAUUCCUCACUUUUAGACACACUCUAAGCUUACUUCUGGCCUGGAUGCUUCCUCUCCCUGGAAUUCUCGGGUGCCAA` — result for “RBNS enrichment (R)”: 0.295.
`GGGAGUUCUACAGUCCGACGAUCCAAGGGCAGUGAGCAAGAGAAAUGUCUAAAGCUGCUUCUCCCAACACCGUCCAAAGUCUCCACUGCCUGAGUUUUGUUUCGGCUGGUUUGAACUCAUUUCGGGUGUGUGCUGGAAUUCUCGGGUGCCAA`: “RBNS enrichment (R)” 1.05.
`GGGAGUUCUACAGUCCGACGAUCUUUUUAAAUGUCACUUGAUACUAGAAUGCGAUUUAAAAGCAUGUAAUGCCUCAGGAGUCCGGCAUAUACAACCAAAUUAUCAUGCUCAGGAUCUUCAGAAUUCUAAAGGCUGGAAUUCUCGGGUGCCAA`: “RBNS enrichment (R)” 0.904.
`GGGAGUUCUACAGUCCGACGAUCAAUGGAAAGAAGGAAAAAAGGAGGAUAGAAAAAGGAUGGAAGAAAGAAGCAUUGAAAACAAAGACAUUCUUCCCACUUCUUGGAUUUUUAAACCACAGUCUGGAGUGAUAUGGAAUUCUCGGGUGCCAA`: “RBNS enrichment (R)” 1.26.
`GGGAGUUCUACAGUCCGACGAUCUUCCCUCGCCUUUCAAGCACGCGGACAUCGUCACCACCACUACUCACAAGACUCUUCGAGGGGCCAGGUCAGGGCUCAUCUUCUACCGGAAAGGGGUGAAGGCUGUGGACUGGAAUUCUCGGGUGCCAA` — result for “RBNS enrichment (R)”: 1.04.
`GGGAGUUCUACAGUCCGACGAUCCACAGAAGACAGAAGACAGGCAUCUUUGUUUCCACACAAUCAUAUUUUCUAUUCCUAACAGCUUCCCGUGGGAAAAGUAAGCUGUUGAUCUCUUUGGCAAUUGUUCUCUGUGGAAUUCUCGGGUGCCAA`: “RBNS enrichment (R)” 1.2.
Under “RBNS enrichment (R)”, `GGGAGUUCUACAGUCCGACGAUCUGCAAAGGGAAUGAAAUCCUGAAGCUCAGAGUGAAGUUCAAACCACGGCGUCCCGCAGAGCCUAGUCUGAACCACCCCAUGCCCACCCUGUGUUCCCGAGCGCUUCCAGGUGGAAUUCUCGGGUGCCAA` is recorded as 0.422.

Study 4 — technique: universal PBM; molecule type: double-stranded DNA, one strand shown; medium: in vitro; tested at: 600 nM; direction: higher = stronger binding
Target: Sal-like protein 4, full length isoform A (SALL4, Homo sapiens, UniProt Q9UJQ4, residues 1-1053)
UniProt Q9UJQ4, sequence (whole entry, looked up): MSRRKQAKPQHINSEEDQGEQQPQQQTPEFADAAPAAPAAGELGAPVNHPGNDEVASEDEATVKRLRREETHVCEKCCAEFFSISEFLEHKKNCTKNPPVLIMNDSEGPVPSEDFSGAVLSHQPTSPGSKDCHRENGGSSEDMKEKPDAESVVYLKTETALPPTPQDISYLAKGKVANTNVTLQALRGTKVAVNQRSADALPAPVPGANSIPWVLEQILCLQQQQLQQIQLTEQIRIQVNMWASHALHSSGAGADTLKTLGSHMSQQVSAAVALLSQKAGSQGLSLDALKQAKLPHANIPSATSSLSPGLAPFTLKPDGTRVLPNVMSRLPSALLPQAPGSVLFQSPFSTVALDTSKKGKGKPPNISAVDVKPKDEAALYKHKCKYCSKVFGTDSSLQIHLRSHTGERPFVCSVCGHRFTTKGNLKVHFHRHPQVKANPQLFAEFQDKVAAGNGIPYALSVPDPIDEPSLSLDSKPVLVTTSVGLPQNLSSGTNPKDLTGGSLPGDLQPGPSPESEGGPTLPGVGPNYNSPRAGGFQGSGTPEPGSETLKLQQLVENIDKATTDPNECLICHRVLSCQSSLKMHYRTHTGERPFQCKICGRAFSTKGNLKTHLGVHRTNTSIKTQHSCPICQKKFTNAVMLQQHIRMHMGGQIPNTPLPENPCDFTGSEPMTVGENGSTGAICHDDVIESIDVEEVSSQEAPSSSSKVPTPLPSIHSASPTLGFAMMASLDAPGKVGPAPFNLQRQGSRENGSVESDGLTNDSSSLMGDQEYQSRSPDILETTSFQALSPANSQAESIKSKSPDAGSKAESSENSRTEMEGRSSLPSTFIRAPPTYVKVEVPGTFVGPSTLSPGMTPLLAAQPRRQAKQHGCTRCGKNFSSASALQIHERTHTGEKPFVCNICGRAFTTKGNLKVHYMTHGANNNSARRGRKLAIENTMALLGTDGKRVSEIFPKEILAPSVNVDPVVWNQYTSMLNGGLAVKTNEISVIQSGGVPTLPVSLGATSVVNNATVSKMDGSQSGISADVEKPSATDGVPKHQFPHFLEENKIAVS
Setting: 8-mer, flanks averaged, mean of replicates
For `CGTTCTAG`, the E-score was -0.0887.
`CCTCGCCA` has an E-score of -0.211.
The E-score of `AAGGAGTG` is reported as -0.0826.
The E-score of `CAGTATTA` is reported as 0.204.
`GTAGAGTA` has an E-score of 0.125.
The E-score of `ACACAGAA` is reported as 0.0293.
For `GAGCCCGA`, the E-score was -0.18.
The E-score of `ACGACTGA` is reported as -0.0743.
`CTGCTTAC` has an E-score of -0.0863.
`ATCGGTTC` has an E-score of -0.185.
The E-score of `AAAAAGCC` is reported as 0.0253.
`AGAATCCG` gave an E-score of -0.214.
For `GGCCGACA`, the E-score was -0.253.
`CACTTTCC` gave an E-score of -0.00993.
With `ACAGTTAT` the E-score was 0.293.
The E-score of `GAACCATA` is reported as 0.111.
`AAAGCACA` gave an E-score of 0.0896.
`AACGAGCA` has an E-score of -0.0141.
`CACACTGC` gave an E-score of -0.211.
For `ATGGCCAG`, the E-score was 0.0375.

A few entries again (study 4):
`ATCGGTTC` has an E-score of -0.185.
The E-score of `AAAAAGCC` is reported as 0.0253.
`AGAATCCG` gave an E-score of -0.214.
For `GGCCGACA`, the E-score was -0.253.
`CACTTTCC` gave an E-score of -0.00993.
With `ACAGTTAT` the E-score was 0.293.
